# Assay results pooled from the literature.
# Numbered parts are unrelated; each lists some results of a single study.

# Series 1
# Target: Sal-like protein 4, full length isoform A (SALL4, Homo sapiens, UniProt Q9UJQ4, residues 1-1053)
# Sequence of UniProt Q9UJQ4 (whole entry, looked up): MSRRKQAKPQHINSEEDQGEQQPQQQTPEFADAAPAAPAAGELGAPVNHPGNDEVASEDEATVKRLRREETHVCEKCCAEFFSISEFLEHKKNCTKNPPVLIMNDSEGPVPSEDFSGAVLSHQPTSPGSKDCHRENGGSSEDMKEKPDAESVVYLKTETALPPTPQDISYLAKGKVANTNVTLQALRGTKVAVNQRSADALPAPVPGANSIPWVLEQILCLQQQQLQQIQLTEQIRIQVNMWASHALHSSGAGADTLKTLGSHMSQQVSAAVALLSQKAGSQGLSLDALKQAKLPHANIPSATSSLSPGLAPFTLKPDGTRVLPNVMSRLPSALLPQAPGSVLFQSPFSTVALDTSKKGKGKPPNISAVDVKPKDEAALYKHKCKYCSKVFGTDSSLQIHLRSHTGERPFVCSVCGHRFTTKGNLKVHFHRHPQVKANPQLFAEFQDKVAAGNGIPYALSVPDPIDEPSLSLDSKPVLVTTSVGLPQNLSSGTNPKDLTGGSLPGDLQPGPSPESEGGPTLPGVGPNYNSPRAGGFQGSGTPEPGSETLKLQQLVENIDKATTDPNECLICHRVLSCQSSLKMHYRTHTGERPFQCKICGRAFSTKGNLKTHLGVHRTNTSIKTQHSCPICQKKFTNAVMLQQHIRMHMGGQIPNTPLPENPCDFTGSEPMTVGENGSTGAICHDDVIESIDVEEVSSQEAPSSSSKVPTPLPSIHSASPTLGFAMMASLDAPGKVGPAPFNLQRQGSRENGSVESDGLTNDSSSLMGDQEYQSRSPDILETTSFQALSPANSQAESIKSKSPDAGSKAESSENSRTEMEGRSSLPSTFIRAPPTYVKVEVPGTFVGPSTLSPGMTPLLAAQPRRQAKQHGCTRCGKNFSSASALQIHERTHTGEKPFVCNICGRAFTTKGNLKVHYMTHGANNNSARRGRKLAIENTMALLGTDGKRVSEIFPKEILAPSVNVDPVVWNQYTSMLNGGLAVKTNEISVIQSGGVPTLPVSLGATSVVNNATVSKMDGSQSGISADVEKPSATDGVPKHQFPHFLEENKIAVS
# Technique: universal PBM
# Molecule type: double-stranded DNA, one strand shown
# Sample: in vitro
# Tested at: 600 nM
# Notes: 8-mer, flanks averaged, mean of replicates
# Direction: higher = stronger binding
Sequence,E-score
GGAAAATA,0.36
ATCTTGTC,0.139
ACAGTCGC,-0.176
ACGTTCAC,-0.0572
AACAGCAC,0.0404
CCAAAGAG,-0.0115
CCACATGG,-0.201
CCGAACAA,0.117
TAACGTGA,0.157
CTACTGAG,-0.0925
GTACACCA,-0.103
AGGCAAAA,0.203

# Series 2
# Target: Prothrombin, mature alpha-thrombin (F2, Homo sapiens, UniProt P00734)
# Technique: aptamer microarray, sandwich
# Molecule type: DNA with 2'F-ANA
# Sample: in vitro
# Tested at: 200 nM
# Notes: whole 15-mer aptamer, many near background
# Added: Cy3 exosite-II aptamer, 400 nM
# Direction: higher = stronger binding
# Sequence: GGTTGGTGTGGTTGG
Modification,mean fluorescence intensity [a.u.]
2'F-ANA at 1 5 6 8 10 11 13 15,49.1
2'F-ANA at 2 4 7 12 14,203
2'F-ANA at 1 7 8 10 14 15,46.9
2'F-ANA at 2 4 8 11 12 13 14,130
2'F-ANA at 6 7 9 12 13,516
2'F-ANA at 3 4 8 11 15,680
2'F-ANA at 1 3 4 6 7 8 11 12 15,342
2'F-ANA at 3 4 5 6 7 9 11 15,68.4
2'F-ANA at 1 4 7 8 10 14 15,47.1
2'F-ANA at 3 4 9 13 14,290
2'F-ANA at 2 4 5 7 8 11 14,61
2'F-ANA at 2 4 5 7 8 9 10 11 13,50.6
2'F-ANA at 2 3 5 6 9 12 13 15,128

# Series 3
# Target: RING finger protein unkempt homolog, zinc fingers 1-6, SBP tag (UNK, Homo sapiens, UniProt Q9C0B0, residues 30-357)
# Sequence of UniProt Q9C0B0 (30-357, looked up): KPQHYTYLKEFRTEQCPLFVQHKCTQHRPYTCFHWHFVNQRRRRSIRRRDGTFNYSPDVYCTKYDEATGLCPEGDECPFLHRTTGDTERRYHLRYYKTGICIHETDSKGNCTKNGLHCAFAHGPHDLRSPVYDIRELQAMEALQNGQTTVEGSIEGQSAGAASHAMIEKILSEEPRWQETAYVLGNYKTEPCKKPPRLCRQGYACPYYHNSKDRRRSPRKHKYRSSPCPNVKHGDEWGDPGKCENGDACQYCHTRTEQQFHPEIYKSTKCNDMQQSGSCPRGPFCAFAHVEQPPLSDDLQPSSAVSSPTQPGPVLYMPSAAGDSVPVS
# Technique: RNA Bind-n-Seq
# Molecule type: RNA
# Sample: in vitro
# Tested at: 100 nM
# Notes: RNA with constant flanks, vertebrate orthologous sites, ends assumed
# Reference: input RNA pool
# Direction: higher = stronger binding
# All sequences stand within: GGGAGUUCUACAGUCCGACGAUC … CAACAGAGGAUUGAGCAUCA
Sequence,bound/input enrichment
GGGGCGGUCGGUGGGGAAAUCCCAUGCCCUGGCCUGCCACCCCUCCCUGCCACCCGCUCCUAGUUAUUUUUUUUUUUUAACCACCAUGUGAUUAAGGUCGGCGCUGCCUCCCCCGACCCG,3.36 ratio
CGCAUGAGCAUCUAUCCAGUUUUAAGCCACUUCCUGAUAAGGCUCUCCAUGUAUUUAUCCUAUUGACACACCUGUUUUUAUGAAUGGCAGUGUGCGUGCAGAGGGGCUCGGUGUUUACAG,0.848 ratio
UUACAGUCAUUGAUGGACUCUAUUUUUUUAUUAUUACUUGGACCUUGGUCGUUUUUAUACUAGCAAAAUGUCUUGUUUUAAUUUGUGUUUUUUUGGGGGGGUGGGAGUGAACUUGCUGAU,1.51 ratio
UAAGAUUUGGAAGAAUUGUAUAGGAGGCAGUAGUCAAAAAGUAGAAGCAGUUUGGAAGAGUAGUUACAAAUAUCAAGAGCCAGGUGGCUAAAAGGUGGAGCUAUAGGUCAUUGAAGCUCA,1.07 ratio
AUUAAAUGUGUAUCAAAUGCUGGAUAUAACAUUAAACCAUCAUUUACAAUAGAUGUUAAUUUGUUACAGUUAAGCUACAAAUAGGUUUCCUUAAACCAGAGAUGCACUCCCCUUGUCUGA,0.204 ratio
GUUAGGUCAUGACCCUUACAGGCUAGGUCAUGAUGCCUACAGGUUAGGGCAGGAUCCCUAUAGAUUAGGCCAUGAUCCCUACAGACUAACUCCUGAUCCCUAUAGAAUGUCACCUAGACC,0.6 ratio

# Further values, each from its own experiment
Substance,target,assay,system,conditions,how to read,endpoint,result
"PhoQ, residues 284 288 289 292 302 303 WVSSAF","PhoP, residues 12 14 15 18 19 NMSSL (Escherichia coli, UniProt P23836)","Sort-seq, refers to: YFP reporter",E. coli,"PhoQ-PhoP variant library, added: 10 µM Mg2+","reference: high Mg2+ state, higher = stronger signaling",fold induction,4.97

# Some of these lines once more (series 1):
Sequence,E-score
CCGAACAA,0.117
TAACGTGA,0.157
CTACTGAG,-0.0925
